Measured values collected from several papers.
Numbered parts are unrelated; each lists some results of a single study.

Set 1
Target: RNA binding protein fox-1 homolog 2, RRM domain, GST-SBP tag (RBFOX2, Homo sapiens, UniProt O43251-10, residues 100-194)
Method: RNA Bind-n-Seq
Molecule type: RNA
Sample: in vitro
Tested at: 365 nM
Notes: natural RNA segment, single round, ends assumed
Relative to: no-protein control
Direction: higher = stronger binding
Measurement: RBNS enrichment (R)
Construct (chain): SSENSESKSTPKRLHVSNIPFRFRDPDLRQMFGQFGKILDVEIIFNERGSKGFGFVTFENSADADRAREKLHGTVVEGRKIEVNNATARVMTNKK
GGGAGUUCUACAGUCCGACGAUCUCUGUGGACAUAAUUCUGACCGAAACCCAUGAAGUUACUUCAGUAUAAGAAGAACGUUACACGGAAAUCACCAAAUAUUUUGCAACUUUAUUUCUUCUGACAUGGAGUGAUGGAAUUCUCGGGUGCCAA: 0.373
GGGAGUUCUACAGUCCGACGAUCCUGCCUGGCAUCUGAUGGGUCAGGUCAAGCCCGUGCUGGUUUUGACUAAGGGUAGAGACUAAGGGGAGACUUGUUUUUCUGAAGUAGACUGCUUUCACUCGGCCUGAUGGUGGAAUUCUCGGGUGCCAA: 0.394
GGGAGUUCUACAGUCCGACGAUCCCUCAAAUCACCAACAGCUUGUUACUACAACAAAUUGUUUUGAUUUUAGUGCCUGUUGAGGACUUGAUUUCUUCUUGAUUUUUCUCUUAAUCUGGUUCAUUUGAAAUUUCUGGAAUUCUCGGGUGCCAA: 0.506
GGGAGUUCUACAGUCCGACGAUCAGCGAGACCCCACCUGAGACAGGCAGUAGGAGCCUGUGCUGACCUUGGGGAAUCUGAGCUUUUCCAAGGGUAAGGGGCCCAGGGUAUGCAGGCCUUCAGUGACAUCAGGUUGGAAUUCUCGGGUGCCAA: 0.944
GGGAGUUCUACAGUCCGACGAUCCAGGGUGGCGCAGCUUUCUGUGUGAUGCAGAUGUGUCCUGGUUUCGGCAGCGUAGCCAGCUGCUGCUUGAGGCCAUGGCUCGUCCCCGGAGUUGGGGGUACCCGUUGCAGUGGAAUUCUCGGGUGCCAA: 1.19
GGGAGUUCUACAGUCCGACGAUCAUUUGAAAUGACCCCUCCUCGCUGUGAGAGUCCAGAGUCUCCUGAAGUUUGUCAAUGACUGAAAUGCGAGCAGUGUCACCCAGAGUUGUGGUCAGCCUUACCCCUUCUCCUGGAAUUCUCGGGUGCCAA: 0.459
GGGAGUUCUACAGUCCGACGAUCAAGUGCACUGCAAGGCCAGAAAAUUUUACAAUCUUCUUUCUUUUAUGUUCUGUAGUGUGUUUACCCUCAUUAUGAAGCAAAUUAGCAAUGCAUUGAUUAAUGUUCACUUAUGGAAUUCUCGGGUGCCAA: 0.209
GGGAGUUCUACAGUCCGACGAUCUCAUUCCCAGAACCUGGAUGCUAUUACACAUGCUUUUAAGAAACGUCAAUGUAUAUCCUUUUAUAACUCUACCACUUUGGGGCAAGCUAUUCCAGCACUGGUUUUGAAUGUGGAAUUCUCGGGUGCCAA: 0.426
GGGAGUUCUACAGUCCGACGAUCACUGUGACAUCAGCCUUUGAUAGUAGGACAUUAUUUCUUGAUUUCCUUAUUAAAAGAAAAAAAUGGGUGCUAGUGGUAAUUUGCUUUGUGGCUUAGCAACCUAGUUUGUGUGGAAUUCUCGGGUGCCAA: 0.998
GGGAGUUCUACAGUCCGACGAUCCCCCAGGCUCCUCCUCCAAAUGCCAGCUGUGCCCACAAGCUGUUCUUAGGGCUCACACUCGCCUUUUGGCGCGUGGUGGGUUUUUGGUAGUGCAGAAAGAAUCCAGGGAUUGGAAUUCUCGGGUGCCAA: 0.268
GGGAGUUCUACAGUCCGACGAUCAGUUAAAAGACUCCAGAAGCCUGUCUCCCCUGCCUGUGUCUGCUCUCCCUCUAUGUCUAUGGUGUCCCCUGGGUUACACAGCUAAACGUGAGGGACCAUCUACCCCCCACUGGAAUUCUCGGGUGCCAA: 1.03
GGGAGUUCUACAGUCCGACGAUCUCUCGCCUGGACCCAAGAGAGGCGACAGCUGUGGCUGGGGCUCUUGGUUUCCAGAGGGUCUGGACUGGUUUGGGUGCUUUAAAAUAGAUAUUUAGUUCAGUGGUGCUUAUUGGAAUUCUCGGGUGCCAA: 0.916

Set 2
Target: Ras GTPase-activating protein-binding protein 1, full length (G3BP1, Homo sapiens, UniProt Q13283)
Sequence of UniProt Q13283 (whole entry, looked up): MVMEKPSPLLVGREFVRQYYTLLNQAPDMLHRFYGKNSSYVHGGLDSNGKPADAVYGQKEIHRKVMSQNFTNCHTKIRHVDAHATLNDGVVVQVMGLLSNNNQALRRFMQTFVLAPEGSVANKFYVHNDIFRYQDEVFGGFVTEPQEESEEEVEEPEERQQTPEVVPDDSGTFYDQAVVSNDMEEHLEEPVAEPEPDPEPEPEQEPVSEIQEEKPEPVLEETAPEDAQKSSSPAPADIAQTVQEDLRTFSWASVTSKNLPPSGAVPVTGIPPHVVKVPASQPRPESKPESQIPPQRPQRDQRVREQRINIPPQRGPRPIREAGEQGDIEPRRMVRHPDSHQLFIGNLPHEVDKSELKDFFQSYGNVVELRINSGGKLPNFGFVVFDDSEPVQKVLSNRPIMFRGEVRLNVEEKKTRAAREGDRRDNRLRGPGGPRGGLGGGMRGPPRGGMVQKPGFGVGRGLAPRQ
Method: RNA Bind-n-Seq
Molecule type: RNA
Sample: in vitro
Tested at: 200 nM
Notes: whole 134-nt RNA, ends assumed
With: 150 mM LiCl
Relative to: input library
Direction: higher = stronger binding
Measurement: log2 enrichment
Library: 7-deaza-guanosine replaces G
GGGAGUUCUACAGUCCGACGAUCUAACUUUAGAGGAGGAUCUGAUGGAUAUGGCAGUGGACGUGGAUUUGGGGAUGGCUAUAAUGGGUAUGGAGGAGGACCUGGAGGUGGUAAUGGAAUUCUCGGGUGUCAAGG: 0.198
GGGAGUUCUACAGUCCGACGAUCUGGGGUAGACCAGUUCCAUGGCACUGAAUAUGUGUGCUGCCCUCAGACAAAGAUUAUUGGAUCUGUGUCAAAAGAAGAGGAAGAGGAAGAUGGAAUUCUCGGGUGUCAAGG: -0.647
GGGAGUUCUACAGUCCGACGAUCUUCAUUCCCAAGGGAGGCCAUGUCUGGAGAUAGACCUUGAAUUUAAUAAAUUUUAGGCACUAUACCAUUUCAGUGGAGAAAAUUGUUGGGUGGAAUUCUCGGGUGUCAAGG: -2.37
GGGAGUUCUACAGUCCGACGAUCUAACUUUAGAGGAGGAUCUGAUGGAUAUGGCAGUGGACGUGGAUUUGGGGAUGGCUAUAAUGGGUAUGGAGGAGGACCUGGAGGUGGCCAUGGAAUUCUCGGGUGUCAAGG: -1.12
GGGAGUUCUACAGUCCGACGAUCCUCAAGUCCUGUGCUACACAUCGUAUGUACCGAAUCGGUUUUUGGAAAGGAGGAAAGUAUUAUGUUACGCCGUUCGGAUCUGCACUUCCAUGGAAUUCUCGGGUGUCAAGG: -0.397
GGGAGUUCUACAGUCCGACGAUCCUGAAGAGUCUGAGGAUGCCCAAUCACAGAGCCAAGCAGAUGAAGAGGAGGAAGAUGAUGAUUUUGGGGUGGAGUACUUGCUUGCCAGGGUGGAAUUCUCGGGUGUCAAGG: -1.06
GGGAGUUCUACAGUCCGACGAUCCAAGUCCUGUGCUACACAUCGUAUGUACCGAAUCGGGAGGGUUUUUUUGGGAGGGAAAGUAUUAUGUUACGCCGUUCGGAUCUGCACUUCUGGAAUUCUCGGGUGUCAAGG: 0.647
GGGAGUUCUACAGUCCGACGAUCUAACUUUAGAGGAGGGUCUGAUGGAUAUGGCAGUGGACGUGGAUUUGGGGAUGGCUAUAAUGGGUAUGGAGGAGGACCUGGAGGUGGCAAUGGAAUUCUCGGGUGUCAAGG: -0.195
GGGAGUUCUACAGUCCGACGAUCUCCUCAAGUCCUGUGCUACACAUCGUAUGUACCGAAUCGGUGGUGGAAAGGAAAGUAUUAUGUUACGCCGUUCGGAUCUGCACUUCCAGCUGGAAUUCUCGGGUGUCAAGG: 0.554
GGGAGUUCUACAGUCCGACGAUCCCUCAAGUCCUGUGCUACACAUCGUAUGUACCGAAUCGGCGGGCGGGGCGGGGAAAGUAUUAUGUUACGCCGUUCGGAUCUGCACUUCCAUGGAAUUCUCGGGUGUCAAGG: 0.477
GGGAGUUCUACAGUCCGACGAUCGUCCUGUGCUACACAUCGUAUGUACCGAAUCAAACCCCCAAAUUUUUAAACCCCCAAAAAAGUAUUAUGUUACGCCGUUCGGAUCUGCACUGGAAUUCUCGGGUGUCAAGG: 1.31

Set 3
Target: Prothrombin, mature alpha-thrombin (F2, Homo sapiens, UniProt P00734)
Method: aptamer microarray, sandwich
Molecule type: DNA with 2'F-ANA
Sample: in vitro
Tested at: 200 nM
Notes: whole 15-mer aptamer, many near background
With: Cy3 exosite-II aptamer, 400 nM
Direction: higher = stronger binding
Measurement: mean fluorescence intensity
Sequence: GGTTGGTGTGGTTGG
2'F-ANA at 1 2 7 9 10 11 12: 61.1 a.u.
2'F-ANA at 1 2 6 9 11 15: 109 a.u.
2'F-ANA at 1 2 4 5 6 8 9 11 12 13 14 15: 101 a.u.
2'F-ANA at 2 7 10 11 12 13 15: 155 a.u.
2'F-ANA at 1 3 5 6 7 8 10 14: 61.4 a.u.
2'F-ANA at 1 2 3 5 6 7 8 10 15: 54.7 a.u.
2'F-ANA at 1 4 5 6 7 8 9 10 11 14 15: 49.7 a.u.
2'F-ANA at 2 3 5 8 9 10 12: 62.1 a.u.
2'F-ANA at 3 4 5 6 7 9 13 15: 55.3 a.u.
2'F-ANA at 1 3 5 6 7 8 9 10 14: 48.8 a.u.
2'F-ANA at 1 2 3 5 6 7 8 9 11 14: 48 a.u.
2'F-ANA at 5 6 7 8 9 10 11 13 14: 59.5 a.u.
2'F-ANA at 2 3 4 6 7 9 10 11 12 13: 193 a.u.
2'F-ANA at 2 4 8 10 13: 72.6 a.u.
2'F-ANA at 3 5 6 9 11 13 14 15: 61.3 a.u.
2'F-ANA at 1 5 6 7 8 10 13 14 15: 46.1 a.u.
2'F-ANA at 1 4 5 8 9 10 14: 45.9 a.u.
2'F-ANA at 1 3 6 8 9 11 12 13 14: 98.2 a.u.

Set 4
Target: RING finger protein unkempt homolog, zinc fingers 1-6, GST-SBP tag (UNK, Homo sapiens, UniProt Q9C0B0, residues 30-357)
Sequence of UniProt Q9C0B0 (30-357, looked up): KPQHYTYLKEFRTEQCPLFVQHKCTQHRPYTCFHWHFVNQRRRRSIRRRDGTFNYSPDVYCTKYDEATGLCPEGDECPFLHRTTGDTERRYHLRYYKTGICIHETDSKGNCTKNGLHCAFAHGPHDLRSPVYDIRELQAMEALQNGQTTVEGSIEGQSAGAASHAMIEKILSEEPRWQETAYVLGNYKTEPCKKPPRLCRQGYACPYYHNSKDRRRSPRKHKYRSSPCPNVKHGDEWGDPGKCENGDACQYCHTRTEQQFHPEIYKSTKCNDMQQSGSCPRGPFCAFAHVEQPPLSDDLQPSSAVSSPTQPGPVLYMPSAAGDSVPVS
Method: RNA Bind-n-Seq
Molecule type: RNA
Sample: in vitro
Tested at: not given
Notes: RNA with constant flanks, human-mouse chimeric sites, ends assumed
Relative to: input RNA pool
Direction: higher = stronger binding
Measurement: bound/input enrichment
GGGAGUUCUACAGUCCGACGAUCCCAAUUGUGGAGCAGUACUUGAAGACAAAGAAAAAUUCUAAUAAUUUAAUCAUCAAGUACAUUAGCUGCCGGCUGGUGACACUCAUCGUUAUACUGUUAGCGUGUAUCUACCUGGGCUAUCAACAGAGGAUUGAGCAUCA: 0.451 ratio
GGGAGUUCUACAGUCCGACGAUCAAAGAACUACUGAGGCAAGGCAGCAAAUUUAGGAGAGACAUUUCAACAAUAUUGAUAGAGUUAGGAUUCCAAAUUAAAAAGAAAACUAAAAGAUUGUACAUCAACAAAGCCAAUAUCUGGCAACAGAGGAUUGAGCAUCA: 7.08 ratio
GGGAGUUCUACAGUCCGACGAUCUUACCCGAGAACGAGGAUGAGCUGGAGAGCACCAACAGGCGCUACACCAAGAGGGACUGCAGCACUUUCCUCAGAACUAGUGAGACGGGCAUUGUGGACCAGGUCAUGGUAACUCUCAACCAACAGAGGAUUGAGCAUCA: 0.127 ratio
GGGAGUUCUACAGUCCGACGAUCUUCAAAGAAAAGGGCAGUUCAUAAAUAUCAUAAGUAACUCUGGGGGAUAAGUGGAAGGUUCUUUUGUUUAAUUUUCCCCCAAAUGAAGCCAAAGUGUGUGUUGAAGAACUGAGAAAAAAUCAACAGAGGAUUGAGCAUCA: 0.22 ratio
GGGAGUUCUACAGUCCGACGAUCACUCUUGACUCUUUCCAUCCUCUUCCUUUCCCUCUUGAUAUUCAAGGCCAUGAAUCCCAAAAUAGCUAUCUAUCUUACUAGCACCCAAACAGAGGUGGAAUAAAUCCACCCCAGUGUCUCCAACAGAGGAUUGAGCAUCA: 3.68 ratio
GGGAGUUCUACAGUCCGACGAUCCUGUGCGGGUGACUGUCCUGGAGUGGCCGUGUCACCGGCCGGAGCGCGGCCAGACUAAUUUUAGAAAAUGCCAAGUAGGAAGUUUGUUGAGGGUGAAGUGGUCAGAGGCCGAUGGCCUGGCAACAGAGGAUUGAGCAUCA: 2.1 ratio
